Published values pooled from the literature.
Parts stem from different laboratories: compare values within a part only. Changes are numbered by the printed parent chain.
Sequence of UniProt P13945 (whole entry, looked up): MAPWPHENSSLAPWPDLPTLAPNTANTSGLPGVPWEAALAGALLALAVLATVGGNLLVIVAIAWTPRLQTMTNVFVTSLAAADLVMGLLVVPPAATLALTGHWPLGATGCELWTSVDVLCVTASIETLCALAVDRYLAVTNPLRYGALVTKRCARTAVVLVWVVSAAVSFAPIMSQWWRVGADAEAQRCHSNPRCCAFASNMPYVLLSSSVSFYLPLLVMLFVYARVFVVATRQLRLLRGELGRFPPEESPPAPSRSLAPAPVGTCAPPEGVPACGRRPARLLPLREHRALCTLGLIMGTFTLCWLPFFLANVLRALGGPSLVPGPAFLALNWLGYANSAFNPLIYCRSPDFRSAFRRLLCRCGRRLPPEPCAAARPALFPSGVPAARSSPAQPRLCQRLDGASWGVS

Study 1
Target: CCND2, cyclin fold, Cln2 fusion (human)
Method: yeast growth competition, sequencing
Sample: yeast
Setting: weak parent motif
Reference: not given
Direction: higher = stronger binding
Starting sequence: viral docking peptide; TSVRRALFTGGSD; partner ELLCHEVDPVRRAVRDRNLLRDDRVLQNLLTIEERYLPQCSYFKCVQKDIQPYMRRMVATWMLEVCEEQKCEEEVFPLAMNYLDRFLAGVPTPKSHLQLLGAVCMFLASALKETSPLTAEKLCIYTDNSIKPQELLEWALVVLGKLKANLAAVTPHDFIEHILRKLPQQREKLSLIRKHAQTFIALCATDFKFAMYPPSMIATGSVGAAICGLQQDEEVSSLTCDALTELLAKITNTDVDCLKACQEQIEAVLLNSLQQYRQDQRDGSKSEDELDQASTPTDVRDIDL
Change	normalised enrichment score
T9V	0.0729
F8V	0.22
T9L	-0.118
R4Y	0.397
R4E	0.00631
R4M	-0.286
S12R	-0.229
F8L	0.2

Study 2
Target: tungstate, free oxyanion
Method: microfluidic competitive inhibition
Sample: in vitro, cell-free expressed
Tested at: not given
Setting: derived from inhibition constants, unchanged parent 2230 nM
Direction: lower = stronger binding
Starting sequence: PafA, mature enzyme, eGFP fusion (Elizabethkingia meningoseptica, UniProt Q9KJX5); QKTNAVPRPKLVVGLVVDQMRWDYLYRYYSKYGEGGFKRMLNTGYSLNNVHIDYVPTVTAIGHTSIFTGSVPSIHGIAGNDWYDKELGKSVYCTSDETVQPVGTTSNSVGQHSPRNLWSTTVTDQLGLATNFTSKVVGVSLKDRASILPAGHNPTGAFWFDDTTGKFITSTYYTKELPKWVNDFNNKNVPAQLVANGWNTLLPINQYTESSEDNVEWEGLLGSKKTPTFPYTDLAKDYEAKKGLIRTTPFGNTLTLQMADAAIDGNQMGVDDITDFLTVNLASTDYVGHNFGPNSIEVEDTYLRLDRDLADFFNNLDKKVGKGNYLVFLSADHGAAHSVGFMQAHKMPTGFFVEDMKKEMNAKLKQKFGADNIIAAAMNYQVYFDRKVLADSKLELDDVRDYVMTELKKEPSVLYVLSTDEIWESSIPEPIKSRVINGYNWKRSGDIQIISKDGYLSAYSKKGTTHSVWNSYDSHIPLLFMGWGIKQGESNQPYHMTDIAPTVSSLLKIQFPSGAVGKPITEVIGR
Change	oxyanion analog dissociation constant [nM]
K363G	1930
A500G	1890
K357V	2420
M268V	2340
A150V	2030
G219A	2080
S433V	1730
V136A	1970

Other studies, line by line
SMILES	tested on	assay	test system	conditions	scale	measurement	value
CNC(=O)c1cc(C(=O)NC2CC2)cn(Cc2ccccc2)c1=O	ADRB3 (Homo sapiens, UniProt P13945)	binding, radioligand binding	–	10 µM	–	inhibition	18.6%
C[C@@H]1[C@H](O)[C@@H](C)/C=C/C=C/CC/C=C/C=C/C=C/C=C/[C@H](O[C@@H]2O[C@H](C)[C@@H](O)[C@H](N)[C@@H]2O)C[C@@H]2O[C@](O)(C[C@@H](O)[C@H](O)CC[C@@H](O)C[C@@H](O)C[C@@H](O)CC(=O)O[C@H]1C)C[C@H](O)[C@H]2C(=O)O	Plasmodium berghei	inhibitor	Huh-7, GFP-expressing, liver stage	10 µM, 24 h	reference: untreated control	infection rate	105%
COc1ccc2c(c1)O[C@@H](c1ccc(OC)c(OC)c1)C[C@H]2NC(=O)C1(c2ccc3c(c2)OC(F)(F)O3)CC1	CDPK1 (Plasmodium falciparum, UniProt P62344)	cell-free assay, competition with immobilised ligand	–	1 µM	–	remaining binding	70%

Repeated from above (study 1):
Change	normalised enrichment score
S12R	-0.229
F8V	0.22
